Results pooled from the literature.
A part holds a random share of what one study measured. Changes are numbered by the printed parent chain.

Series 1
Target: Hepatocyte nuclear factor 3-beta, forkhead domain (FOXA2, Homo sapiens, UniProt Q9Y261, residues 142-269)
Technique: protein-binding microarray
Molecule type: double-stranded DNA, one strand shown
Matrix: in vitro
Concentration: not given
Setting: k-mer, scored over probes, only values ≥0.25
Reading: higher = stronger binding
Target sequence (chain): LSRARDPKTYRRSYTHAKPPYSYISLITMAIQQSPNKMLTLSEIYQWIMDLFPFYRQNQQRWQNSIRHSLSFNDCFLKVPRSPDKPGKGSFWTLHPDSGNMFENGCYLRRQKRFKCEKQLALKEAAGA
`AAATGGTA` has an E-score of 0.366.
For `TGGTATAA`, the E-score was 0.364.
For `ATAAATTG`, the E-score was 0.255.
The E-score of `ATCAAATA` is reported as 0.383.
With `CTATACCA` the E-score was 0.27.
With `CTATTATA` the E-score was 0.333.
The E-score of `ATTTGTAC` is reported as 0.287.
`TGATATAA` gave an E-score of 0.255.

Series 2
Target: Ras GTPase-activating protein-binding protein 1, full length (G3BP1, Homo sapiens, UniProt Q13283)
Sequence of UniProt Q13283 (whole entry, looked up): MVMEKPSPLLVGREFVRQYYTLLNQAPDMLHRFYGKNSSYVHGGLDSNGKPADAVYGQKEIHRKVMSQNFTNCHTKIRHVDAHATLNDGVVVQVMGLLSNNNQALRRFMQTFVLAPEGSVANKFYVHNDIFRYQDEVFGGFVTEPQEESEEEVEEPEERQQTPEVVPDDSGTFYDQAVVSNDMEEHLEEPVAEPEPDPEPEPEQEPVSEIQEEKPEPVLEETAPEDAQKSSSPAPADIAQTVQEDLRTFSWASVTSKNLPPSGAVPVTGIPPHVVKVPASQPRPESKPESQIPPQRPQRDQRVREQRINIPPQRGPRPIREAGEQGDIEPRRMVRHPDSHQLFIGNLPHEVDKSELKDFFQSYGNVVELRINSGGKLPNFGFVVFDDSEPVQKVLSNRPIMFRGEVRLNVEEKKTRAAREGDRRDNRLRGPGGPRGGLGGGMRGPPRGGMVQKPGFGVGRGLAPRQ
Technique: RNA Bind-n-Seq
Molecule type: RNA
Matrix: in vitro
Concentration: 200 nM
Setting: whole 134-nt RNA, ends assumed
Added: 150 mM LiCl
Baseline: input library
Reading: higher = stronger binding
Each molecule: 7-deaza-guanosine replaces G
The log2 enrichment of `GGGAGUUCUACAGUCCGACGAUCCUGUGCUACACAUCGUAUGUACCGAAUCGGUUUUUUUGGGUUUUUUUGGGGUUUUUUUGGGGAAAGUAUUAUGUUACGCCGUUCGGAUCUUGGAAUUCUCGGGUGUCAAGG` is reported as 1.6.
The log2 enrichment of `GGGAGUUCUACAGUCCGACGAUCCUGUGCUACACAUCGUAUGUACCGAAUCGGGUUUUUUUGGGUUUUUUUGGGUUUUUUUGGGAAAGUAUUAUGUUACGCCGUUCGGAUCUGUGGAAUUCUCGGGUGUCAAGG` is reported as 1.15.
For `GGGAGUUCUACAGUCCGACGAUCUGGGAGGUGGAUUUUGUUUAUUUUUUUAGCUCAUUUCCAGGGGUGGGAAUUUUUUUUUAAUAUGUGACAUGAAUAAAGUUGUUUUUGAAAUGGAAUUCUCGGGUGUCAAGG`, the log2 enrichment was -0.573.
`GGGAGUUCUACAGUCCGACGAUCUGGCCCUGGUGGCAUGCGGGGAGGAAGAGGUGGCCUCAUGGAUCGUGGUGGUCCCGGAGGAAUGUUCAGAGGUGGCCGUGGUGGAGACAGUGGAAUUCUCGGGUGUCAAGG` has a log2 enrichment of 0.0833.
The log2 enrichment of `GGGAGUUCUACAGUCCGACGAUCUGGCCCUGGUGGCAUGCGGGGAGGAAGAGGUGGCCUCAUGGAUCGUGGUGGUCCCGGUGGAAUGUUCAGAGGUGGCCGUGGAGGAGACAGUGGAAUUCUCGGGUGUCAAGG` is reported as -0.0197.
The log2 enrichment of `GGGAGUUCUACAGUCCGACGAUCCCUGUGCUACACAUCGUAUGUACCGAAUCGGGGAAAAAAGGGAAAAAAGGGAAAAAAGGGAAAGUAUUAUGUUACGCCGUUCGGAUCUGCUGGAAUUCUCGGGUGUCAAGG` is reported as 0.367.
For `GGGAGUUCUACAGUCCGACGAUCGUCCUGUGCUACACAUCGUAUGUACCGAAUCGGGGAAAAAAAGGGGAGGGGUUUGGGGAAAGUAUUAUGUUACGCCGUUCGGAUCUGCACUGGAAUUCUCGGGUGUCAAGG`, the log2 enrichment was -0.669.
`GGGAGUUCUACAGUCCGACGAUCCAAGUCCUGUGCUACACAUCGUAUGUACCGAAUCGGAAAAAGGUUUUUUUGGAGGAAAGUAUUAUGUUACGCCGUUCGGAUCUGCACUUCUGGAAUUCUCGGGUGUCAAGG` has a log2 enrichment of -1.35.

Series 3
Target: HLA class I histocompatibility antigen, A alpha chain, allele A*80:01 (Homo sapiens, UniProt P04439)
Observed: peptide-MHC binding
Molecule type: peptide
Concentration: concentration not given
`AIFQSSMTK` — result for binding: “inactive”.
For `KLADYLLLQ`, binding read “inactive”.
`DEYGPVFVE` — result for binding: “inactive”.

Series 4
Target: Microphthalmia-associated transcription factor, full length (MITF, Homo sapiens, UniProt O75030-10, residues 1-413)
Technique: protein-binding microarray
Molecule type: hairpin DNA
Matrix: in vitro
Concentration: not given
Setting: whole hairpin DNA, median over replicate spots
Baseline: not given
Reading: higher = stronger binding
`GAGGCCTAGCACCGGCTGCCTCCTGGCAGCCGGTGCTAGGCCTCACACTC` has a median fluorescence of 6190 a.u.
For `GAGGCCTAGCACGTGCCGCCTCCTGGCGGCACGTGCTAGGCCTCACACTC`, the median fluorescence was 24000 a.u.
`GAGGCCTACCACGTGCTGCCTCCTGGCAGCACGTGGTAGGCCTCACACTC` gave a median fluorescence of 22800 a.u.
`GAGGCCTAGCACGTGCGGCCTCCTGGCCGCACGTGCTAGGCCTCACACTC (5mC at 28)` has a median fluorescence of 21700 a.u.
For `CACTTAGCACCGGATTTTGGTCCTCCAAAATCCGGTGCTAAGTGACACTC`, the median fluorescence was 5450 a.u.
`CACTTAGCACGTGATTTTGGTCCTCCAAAATCACGTGCTAAGTGACACTC (5mC at 34)` has a median fluorescence of 15300 a.u.
With `GAGGCCTAGCACGCGCTGCCTCCTGGCAGCGCGTGCTAGGCCTCACACTC` the median fluorescence was 13200 a.u.
`GAGGCCTAGCACGTGCTGCCTCCTGGCAGCACGTGCTAGGCCTCACACTC (5mC at 30)` gave a median fluorescence of 10600 a.u.

Series 5
Target: CCNE2, cyclin fold, Cln2 fusion (human)
Technique: yeast growth competition, sequencing
Matrix: yeast
Setting: strong parent motif
Baseline: not given
Reading: higher = stronger binding
Starting sequence: viral docking peptide; KGVKRKLFAEDSS; partner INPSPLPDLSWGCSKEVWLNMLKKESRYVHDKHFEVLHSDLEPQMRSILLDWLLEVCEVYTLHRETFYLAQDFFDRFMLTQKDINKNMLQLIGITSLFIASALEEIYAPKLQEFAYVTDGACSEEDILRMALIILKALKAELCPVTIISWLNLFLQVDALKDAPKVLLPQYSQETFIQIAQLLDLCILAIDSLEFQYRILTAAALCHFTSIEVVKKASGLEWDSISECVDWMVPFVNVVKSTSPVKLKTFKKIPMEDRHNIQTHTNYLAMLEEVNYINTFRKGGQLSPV
`KGVKRKLFKEDSS [A9K]` — result for “normalised enrichment score”: 5.52.
For `KGVKRQLFAEDSS [K6Q]`, “normalised enrichment score” read 6.84.
`KGVKVKLFAEDSS [R5V]` — result for “normalised enrichment score”: 0.631.
Under “normalised enrichment score”, `KGVKRKLFAEDQS [S12Q]` is recorded as 6.27.
`KGVKRKLFAEISS [D11I]` — result for “normalised enrichment score”: 5.65.
`KGVTRKLFAEDSS [K4T]` — result for “normalised enrichment score”: 3.
Under “normalised enrichment score”, `KGQKRKLFAEDSS [V3Q]` is recorded as 0.18.
`KGVKRKLFAEDPS [S12P]` — result for “normalised enrichment score”: 7.01.
Under “normalised enrichment score”, `KGVKRKLFQEDSS [A9Q]` is recorded as 7.12.
`KGVKRKLYAEDSS [F8Y]`: “normalised enrichment score” 1.83.
`KGVKRKLWAEDSS [F8W]` — result for “normalised enrichment score”: 4.68.
`KLVKRKLFAEDSS [G2L]` — result for “normalised enrichment score”: 4.88.
`KGCKRKLFAEDSS [V3C]`: “normalised enrichment score” 4.58.
`KGVKRKLFAEYSS [D11Y]`: “normalised enrichment score” 6.8.
`KGVKRKLFAEDDS [S12D]`: “normalised enrichment score” 7.16.
`KGVKRKLFAEKSS [D11K]` — result for “normalised enrichment score”: 5.22.
`KGVKRKLFAMDSS [E10M]` — result for “normalised enrichment score”: 5.68.
For `KGVKKKLFAEDSS [R5K]`, “normalised enrichment score” read 2.62.
`KGVKRKDFAEDSS [L7D]`: “normalised enrichment score” 0.156.
Under “normalised enrichment score”, `KGVKRKNFAEDSS [L7N]` is recorded as 0.349.
For `KGVKRKLFAVDSS [E10V]`, “normalised enrichment score” read 5.53.
For `KMVKRKLFAEDSS [G2M]`, “normalised enrichment score” read 5.51.
Under “normalised enrichment score”, `KGVKRKLKAEDSS [F8K]` is recorded as 0.569.
`KGVQRKLFAEDSS [K4Q]`: “normalised enrichment score” 3.84.
`KGMKRKLFAEDSS [V3M]`: “normalised enrichment score” 1.07.

For quick reference, copied from above (series 5):
`KGVKRKDFAEDSS [L7D]`: “normalised enrichment score” 0.156.
Under “normalised enrichment score”, `KGVKRKNFAEDSS [L7N]` is recorded as 0.349.
For `KGVKRKLFAVDSS [E10V]`, “normalised enrichment score” read 5.53.
